Published values pooled from the literature.
A part holds a random share of what one study measured.

Sample 1 — technique: protein-binding microarray; form: double-stranded DNA, one strand shown; matrix: in vitro; concentration: 250 nM; setting: 60-bp whole probe; added: salmon DNA 0.4 mg/ml; baseline: random background probes; reading: higher = stronger binding; measurement: log fluorescence; all sequences stand within: GCCTAGCAC … GTCTTGATTCGCTTGACGCTGCTG
Target: Interferon regulatory factor 7, full length, phosphomimetic (IRF7, Homo sapiens, UniProt Q92985, residues 1-503, S101K/S471D/S472D/S475D/S476D/S477D/S483D/S484D/S487D)
Construct (chain): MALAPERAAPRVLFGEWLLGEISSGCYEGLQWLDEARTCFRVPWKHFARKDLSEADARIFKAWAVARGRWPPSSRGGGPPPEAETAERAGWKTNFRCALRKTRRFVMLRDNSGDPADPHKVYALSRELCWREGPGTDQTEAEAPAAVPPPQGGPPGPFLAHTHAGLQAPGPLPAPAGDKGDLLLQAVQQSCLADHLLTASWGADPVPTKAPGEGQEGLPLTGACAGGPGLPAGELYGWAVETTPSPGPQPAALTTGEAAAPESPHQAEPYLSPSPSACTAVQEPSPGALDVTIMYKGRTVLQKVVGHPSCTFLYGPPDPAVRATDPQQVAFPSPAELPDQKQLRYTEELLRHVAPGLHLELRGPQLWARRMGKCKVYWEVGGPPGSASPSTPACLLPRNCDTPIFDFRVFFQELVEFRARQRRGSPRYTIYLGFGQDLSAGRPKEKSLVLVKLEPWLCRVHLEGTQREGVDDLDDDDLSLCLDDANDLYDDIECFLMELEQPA
GACGCACTGGACTTTCGGGACGTGCTA: -0.296 z-score
GACGGACGGGGACTGGGGACGTGCTAG: -0.557 z-score
GACGGTATCCTACAGCTGACGTGCTAG: -0.257 z-score
GACGGTATTCTTATCCTGACGTGCTAG: -0.194 z-score
GACGGTATCGGTTTCGGGCCGTGCTAG: 5.24 z-score
GACGCTATCAGACTGGAGACGTGCTAG: -0.331 z-score
TTAGGTATCCTTTTCCTTTTGTGCTAG: 2.11 z-score
TCATTTTTTTTTTCATCATTGTGCTAG: 1.05 z-score
GACGGACTGGGATTCGGGACGTGCTAG: -0.258 z-score

Sample 2 — technique: universal PBM; form: double-stranded DNA, one strand shown; matrix: in vitro; concentration: 600 nM; reading: higher = stronger binding; measurement: E-score
Target: Sal-like protein 4, full length isoform A (SALL4, Homo sapiens, UniProt Q9UJQ4, residues 1-1053)
Chain of UniProt Q9UJQ4 (whole entry, looked up): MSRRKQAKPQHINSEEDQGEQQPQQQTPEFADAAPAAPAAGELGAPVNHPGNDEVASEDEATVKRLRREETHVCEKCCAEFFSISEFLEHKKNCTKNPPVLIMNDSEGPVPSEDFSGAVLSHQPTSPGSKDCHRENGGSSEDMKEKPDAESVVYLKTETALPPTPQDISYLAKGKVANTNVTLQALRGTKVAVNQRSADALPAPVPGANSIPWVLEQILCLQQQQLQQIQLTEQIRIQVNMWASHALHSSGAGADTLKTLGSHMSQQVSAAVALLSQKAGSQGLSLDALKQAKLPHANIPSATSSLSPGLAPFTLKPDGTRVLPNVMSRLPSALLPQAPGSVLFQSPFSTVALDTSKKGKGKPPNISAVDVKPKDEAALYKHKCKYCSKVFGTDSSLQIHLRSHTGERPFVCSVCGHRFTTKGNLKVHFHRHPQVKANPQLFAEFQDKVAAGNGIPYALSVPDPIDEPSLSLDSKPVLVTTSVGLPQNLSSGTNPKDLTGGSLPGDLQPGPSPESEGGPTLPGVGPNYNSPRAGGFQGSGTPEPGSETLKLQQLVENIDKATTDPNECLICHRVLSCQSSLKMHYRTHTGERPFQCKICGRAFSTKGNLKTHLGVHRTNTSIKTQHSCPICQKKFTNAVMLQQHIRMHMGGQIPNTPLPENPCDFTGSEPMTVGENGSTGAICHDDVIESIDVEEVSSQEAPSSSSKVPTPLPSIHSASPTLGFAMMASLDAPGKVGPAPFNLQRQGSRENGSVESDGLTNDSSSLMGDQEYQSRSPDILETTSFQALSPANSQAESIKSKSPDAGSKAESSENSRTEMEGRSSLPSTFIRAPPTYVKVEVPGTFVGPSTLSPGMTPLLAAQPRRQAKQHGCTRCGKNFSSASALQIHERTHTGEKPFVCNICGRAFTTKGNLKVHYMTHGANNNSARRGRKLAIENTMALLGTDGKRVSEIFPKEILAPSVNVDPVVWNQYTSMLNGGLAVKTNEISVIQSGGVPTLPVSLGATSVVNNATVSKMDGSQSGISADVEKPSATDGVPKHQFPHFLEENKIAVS
Setting: 8-mer, flanks averaged, mean of replicates
CTTAACAA: 0.237
CTCGTGAC: -0.0636
GACTATTA: 0.267
GTAATACA: 0.286
TTCAGAAA: 0.0837
AAAAATAC: 0.282
AACTAGGG: -0.0458

Sample 3 — technique: RNA Bind-n-Seq; form: RNA; matrix: in vitro; concentration: 365 nM; baseline: no-protein control; reading: higher = stronger binding; measurement: RBNS enrichment (R)
Target: RNA binding protein fox-1 homolog 2, RRM domain, GST-SBP tag (RBFOX2, Homo sapiens, UniProt O43251-10, residues 100-194)
Setting: natural RNA segment, single round, ends assumed
All sequences stand within: GGGAGUUCUACAGUCCGACGAUC … UGGAAUUCUCGGGUGCCAA
Construct (chain): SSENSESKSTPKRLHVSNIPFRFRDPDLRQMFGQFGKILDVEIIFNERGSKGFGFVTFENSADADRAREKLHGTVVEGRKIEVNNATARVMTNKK
UGACUGGUCCGCACAACACACCCACUGCUCAGUUUCCUGAGAAGAGAGAUCUCAAGACAUUUUAAUAACAGCUUGAGCCCUCUUCUCCUCUGUAGGAACUUAGGUUAAUA: 0.403
GGUCUUCAUGAAUGUUUCCUGAGUAAAGGAAGGAGACCAGCAGCUAACCUUAGUUAGAGCCUACCUUUUGCAGUUUCUAAAUUGCUAUUAUAGUGUACAGUUCAAUUAGU: 17.8
GGAAAAUCAAGAUGUGGCUGAAGAUCAGAGGCUCAGUUAGCAACCUGUGUUGUAGCAGUGAUGUCAGUCCAUUGAUUGUCUUUAGAGAGUUAAUGUUACAAAAAAGAAUU: 0.655
AACUGUCUCCUACCUCUGCUCUUGGAGGAGAUGGGGACAGGGCUGGAGUCAAAACACUUGUAAUUUUGUAUCUUGAUGUCUUUGUUAAGACUGCUGAAGAAUUAUUUUUU: 0.428
CUGAUAGUGCAGAGACUUACCAGAAGACACAAGGAAUUGUACUGAAGAGCUAUUACAAUCCAAAUAUUGCCGUUUCAUAAAUGUAAUAAGUAAUACUAAUUCACAGAGUA: 0.626
AAAUAUUACAGCAAUACACUGGGCUAGUGUCUCACAAAUAACUGAUUUACUCAGAGCCACCUGACAGCAGGCCACUAGUGACAGUUUCUGUUAUGUUCCUAUGGAAACAC: 0.322
CGAGAAACGGCUCUUCCUGCCUGGAUGCAGGAGGGCAGGGGCCACCACAGAUUAAAGCUGUUACUGCACACGCAGAGGCCGGCUUCUUCCUCCAGGGGGGCCACAGGGUG: 0.309
AAGUGGAUUCUCUCCGUGUCCCUGCCCCCCACCCAAACUUGAACUAUACCUAUUACAUUUCCAGGCAGUAUCCCUAAGAUGAGAUCCUGGAGAAAGGACUAGGGGAAGUA: 0.277
UUUGGGUUUAAUGUUAUAGAAAUAAAUGAUGAUAAACUCUAACUAAUAAAGGAAAGAGAAUAUUUGGUUACUCAGAUCCAUUUUUAACCUCUGGUGCUGUAUAAAGGGAA: 0.445
UUUCAGAAAACAGGUCUCUCCUUUUGUAAAUCUGGAAUGAUGUAAGAAAAUGCUUUUGGUUACUGAUACAUUUUUCCCUAAUUGACCUUUUCUAUUACUAAAUCUGAAAU: 0.47

Single results of other studies
PhoQ, residues 284 288 289 292 302 303 SSCLAV — fold induction (PhoP, residues 12 14 15 18 19 LHSVQ (Escherichia coli, UniProt P23836); Sort-seq, item: YFP reporter; E. coli; PhoQ-PhoP variant library, added: 10 µM Mg2+; baseline: high Mg2+ state, higher = stronger signaling): 14.8

Excerpt of the above (sample 3):
GGAAAAUCAAGAUGUGGCUGAAGAUCAGAGGCUCAGUUAGCAACCUGUGUUGUAGCAGUGAUGUCAGUCCAUUGAUUGUCUUUAGAGAGUUAAUGUUACAAAAAAGAAUU: 0.655
AACUGUCUCCUACCUCUGCUCUUGGAGGAGAUGGGGACAGGGCUGGAGUCAAAACACUUGUAAUUUUGUAUCUUGAUGUCUUUGUUAAGACUGCUGAAGAAUUAUUUUUU: 0.428
CUGAUAGUGCAGAGACUUACCAGAAGACACAAGGAAUUGUACUGAAGAGCUAUUACAAUCCAAAUAUUGCCGUUUCAUAAAUGUAAUAAGUAAUACUAAUUCACAGAGUA: 0.626
AAAUAUUACAGCAAUACACUGGGCUAGUGUCUCACAAAUAACUGAUUUACUCAGAGCCACCUGACAGCAGGCCACUAGUGACAGUUUCUGUUAUGUUCCUAUGGAAACAC: 0.322
